Results from different studies.
Each numbered part is a random draw from the data of one study; scales do not carry over between parts. “And” joins repeats or separate records; there may be more than shown. Changes are numbered by the printed parent chain.
Sequence of UniProt P07949 (whole entry, unmodified, looked up): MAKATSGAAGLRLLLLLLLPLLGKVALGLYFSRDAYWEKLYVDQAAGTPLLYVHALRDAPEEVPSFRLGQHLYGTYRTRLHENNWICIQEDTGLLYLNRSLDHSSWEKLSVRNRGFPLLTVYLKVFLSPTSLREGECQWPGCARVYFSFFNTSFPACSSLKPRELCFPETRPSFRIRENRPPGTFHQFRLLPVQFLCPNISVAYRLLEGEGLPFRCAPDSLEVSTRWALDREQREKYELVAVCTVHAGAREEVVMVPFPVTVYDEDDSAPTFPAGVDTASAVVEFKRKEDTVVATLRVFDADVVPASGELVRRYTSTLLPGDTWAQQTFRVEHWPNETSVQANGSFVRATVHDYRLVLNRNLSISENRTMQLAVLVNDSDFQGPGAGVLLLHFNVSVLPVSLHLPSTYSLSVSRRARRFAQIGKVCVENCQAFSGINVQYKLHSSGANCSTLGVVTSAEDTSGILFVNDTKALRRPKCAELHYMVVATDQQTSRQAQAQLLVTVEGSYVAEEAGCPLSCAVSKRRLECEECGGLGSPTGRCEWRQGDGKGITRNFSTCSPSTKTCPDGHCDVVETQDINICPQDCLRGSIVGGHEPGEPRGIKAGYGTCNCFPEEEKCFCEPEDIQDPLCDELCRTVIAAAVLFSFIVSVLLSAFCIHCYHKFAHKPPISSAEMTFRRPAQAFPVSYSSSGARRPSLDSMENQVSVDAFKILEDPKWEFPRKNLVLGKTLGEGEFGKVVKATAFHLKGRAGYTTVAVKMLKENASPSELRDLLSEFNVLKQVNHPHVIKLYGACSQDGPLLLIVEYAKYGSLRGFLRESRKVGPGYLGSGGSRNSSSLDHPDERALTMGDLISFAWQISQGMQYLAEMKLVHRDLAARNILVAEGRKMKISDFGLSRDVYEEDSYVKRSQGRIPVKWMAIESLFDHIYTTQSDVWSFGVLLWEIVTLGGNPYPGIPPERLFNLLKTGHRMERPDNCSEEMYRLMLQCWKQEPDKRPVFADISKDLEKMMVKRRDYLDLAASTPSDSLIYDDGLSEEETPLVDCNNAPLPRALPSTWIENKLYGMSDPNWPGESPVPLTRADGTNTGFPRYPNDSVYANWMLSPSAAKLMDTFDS
Sequence of UniProt Q8WU08 (whole entry, looked up): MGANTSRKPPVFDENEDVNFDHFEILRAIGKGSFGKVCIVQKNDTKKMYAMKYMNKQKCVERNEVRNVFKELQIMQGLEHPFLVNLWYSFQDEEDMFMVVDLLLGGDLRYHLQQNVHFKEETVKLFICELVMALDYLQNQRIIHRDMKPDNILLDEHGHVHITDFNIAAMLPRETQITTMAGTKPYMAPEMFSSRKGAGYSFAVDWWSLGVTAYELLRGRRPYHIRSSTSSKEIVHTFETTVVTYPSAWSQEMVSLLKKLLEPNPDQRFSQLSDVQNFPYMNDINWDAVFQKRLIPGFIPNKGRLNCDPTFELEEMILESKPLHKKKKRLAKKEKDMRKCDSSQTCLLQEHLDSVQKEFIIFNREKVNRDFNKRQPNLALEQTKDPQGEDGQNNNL
Sequence of UniProt O14936 (whole entry, looked up): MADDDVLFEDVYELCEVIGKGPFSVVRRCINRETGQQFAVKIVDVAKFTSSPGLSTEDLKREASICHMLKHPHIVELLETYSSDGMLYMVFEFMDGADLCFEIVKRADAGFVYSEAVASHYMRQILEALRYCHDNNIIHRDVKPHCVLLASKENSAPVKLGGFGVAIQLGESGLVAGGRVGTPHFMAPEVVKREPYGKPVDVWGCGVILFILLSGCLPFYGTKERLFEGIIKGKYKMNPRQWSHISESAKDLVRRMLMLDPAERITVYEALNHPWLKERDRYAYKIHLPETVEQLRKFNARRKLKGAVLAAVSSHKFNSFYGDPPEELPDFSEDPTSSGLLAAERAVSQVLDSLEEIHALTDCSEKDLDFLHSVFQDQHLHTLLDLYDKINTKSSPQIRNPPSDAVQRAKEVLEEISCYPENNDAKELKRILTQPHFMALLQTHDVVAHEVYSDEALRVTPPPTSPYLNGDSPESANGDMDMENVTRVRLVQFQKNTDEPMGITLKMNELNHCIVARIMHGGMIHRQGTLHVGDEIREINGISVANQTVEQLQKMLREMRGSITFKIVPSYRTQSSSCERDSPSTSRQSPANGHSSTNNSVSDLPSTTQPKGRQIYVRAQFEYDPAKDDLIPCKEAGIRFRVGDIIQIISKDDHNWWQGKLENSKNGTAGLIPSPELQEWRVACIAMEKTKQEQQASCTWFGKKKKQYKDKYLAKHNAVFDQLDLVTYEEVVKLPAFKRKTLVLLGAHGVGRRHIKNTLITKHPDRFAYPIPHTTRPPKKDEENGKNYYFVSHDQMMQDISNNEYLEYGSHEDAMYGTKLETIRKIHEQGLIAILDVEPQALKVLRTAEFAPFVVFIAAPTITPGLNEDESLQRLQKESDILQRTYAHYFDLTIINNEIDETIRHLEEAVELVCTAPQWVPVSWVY
Sequence of UniProt P50750 (whole entry, looked up): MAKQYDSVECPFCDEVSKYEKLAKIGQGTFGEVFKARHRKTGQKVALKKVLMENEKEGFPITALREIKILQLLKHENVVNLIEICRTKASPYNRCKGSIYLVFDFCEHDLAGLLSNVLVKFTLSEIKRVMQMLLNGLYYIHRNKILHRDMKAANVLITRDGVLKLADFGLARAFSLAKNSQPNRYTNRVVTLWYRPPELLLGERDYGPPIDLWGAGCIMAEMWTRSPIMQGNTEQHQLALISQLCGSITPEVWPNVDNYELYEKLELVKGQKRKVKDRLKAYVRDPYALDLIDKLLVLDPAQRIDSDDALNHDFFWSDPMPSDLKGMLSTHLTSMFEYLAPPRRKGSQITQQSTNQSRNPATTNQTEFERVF
Sequence of UniProt Q9UQ88 (whole entry, looked up): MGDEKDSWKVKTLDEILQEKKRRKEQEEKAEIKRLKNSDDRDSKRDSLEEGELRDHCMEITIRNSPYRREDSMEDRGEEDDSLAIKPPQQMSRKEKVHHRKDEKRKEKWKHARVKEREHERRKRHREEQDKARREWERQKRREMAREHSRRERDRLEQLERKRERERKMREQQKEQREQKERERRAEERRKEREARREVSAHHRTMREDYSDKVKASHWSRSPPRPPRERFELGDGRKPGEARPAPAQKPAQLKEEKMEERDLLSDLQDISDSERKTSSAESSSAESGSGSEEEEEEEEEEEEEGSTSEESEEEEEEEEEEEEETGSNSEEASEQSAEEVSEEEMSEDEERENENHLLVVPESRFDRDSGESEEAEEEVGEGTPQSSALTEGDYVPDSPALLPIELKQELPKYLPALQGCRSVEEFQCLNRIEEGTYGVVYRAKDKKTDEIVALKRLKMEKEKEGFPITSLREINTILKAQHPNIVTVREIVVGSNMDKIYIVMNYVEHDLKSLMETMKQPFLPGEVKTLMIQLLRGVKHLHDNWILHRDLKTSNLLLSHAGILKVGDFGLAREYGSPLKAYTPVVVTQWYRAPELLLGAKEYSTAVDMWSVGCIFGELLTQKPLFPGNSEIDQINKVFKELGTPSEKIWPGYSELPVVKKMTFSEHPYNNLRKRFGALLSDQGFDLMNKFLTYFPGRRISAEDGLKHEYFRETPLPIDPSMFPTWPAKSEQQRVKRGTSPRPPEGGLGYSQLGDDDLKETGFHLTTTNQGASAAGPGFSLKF
Sequence of UniProt P49674 (whole entry, looked up): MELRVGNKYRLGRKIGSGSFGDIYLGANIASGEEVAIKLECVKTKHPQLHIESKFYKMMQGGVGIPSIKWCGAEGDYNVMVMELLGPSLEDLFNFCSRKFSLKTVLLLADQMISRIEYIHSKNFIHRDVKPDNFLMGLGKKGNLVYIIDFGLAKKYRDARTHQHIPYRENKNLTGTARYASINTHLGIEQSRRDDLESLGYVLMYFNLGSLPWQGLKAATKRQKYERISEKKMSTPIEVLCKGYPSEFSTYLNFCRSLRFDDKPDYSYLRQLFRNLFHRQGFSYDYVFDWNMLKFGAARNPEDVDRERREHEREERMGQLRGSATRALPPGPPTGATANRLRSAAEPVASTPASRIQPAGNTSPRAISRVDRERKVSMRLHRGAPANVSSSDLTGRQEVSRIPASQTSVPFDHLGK
Sequence of UniProt P61075 (whole entry, looked up): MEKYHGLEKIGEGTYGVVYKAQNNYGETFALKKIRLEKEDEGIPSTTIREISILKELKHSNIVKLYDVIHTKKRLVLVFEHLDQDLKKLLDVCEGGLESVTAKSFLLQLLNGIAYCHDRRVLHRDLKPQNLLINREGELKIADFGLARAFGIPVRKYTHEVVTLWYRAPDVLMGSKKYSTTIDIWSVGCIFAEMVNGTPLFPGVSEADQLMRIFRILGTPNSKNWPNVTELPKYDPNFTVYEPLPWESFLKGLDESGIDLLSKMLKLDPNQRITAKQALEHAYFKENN
Sequence of UniProt O94921 (whole entry, looked up): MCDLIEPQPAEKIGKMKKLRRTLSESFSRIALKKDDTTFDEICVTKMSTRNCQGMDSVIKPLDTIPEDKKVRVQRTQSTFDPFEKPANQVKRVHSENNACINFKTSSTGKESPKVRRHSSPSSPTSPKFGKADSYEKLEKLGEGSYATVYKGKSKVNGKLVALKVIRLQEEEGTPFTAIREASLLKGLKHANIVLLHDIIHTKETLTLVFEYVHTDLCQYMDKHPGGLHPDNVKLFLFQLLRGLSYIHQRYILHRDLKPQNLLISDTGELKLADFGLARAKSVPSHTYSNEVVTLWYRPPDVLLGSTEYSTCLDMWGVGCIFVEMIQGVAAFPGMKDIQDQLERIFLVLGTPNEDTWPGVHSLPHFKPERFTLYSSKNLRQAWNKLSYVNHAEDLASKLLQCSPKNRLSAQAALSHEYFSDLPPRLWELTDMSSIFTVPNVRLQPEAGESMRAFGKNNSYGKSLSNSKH

Set 1
Target: HLA class I histocompatibility antigen, C alpha chain, allele C*04:01 (Homo sapiens, UniProt P10321)
Read-out: peptide-MHC binding
Molecule type: peptide
Concentration: concentration not given
Quantity: binding
Molecule = TVMDIISRK; result = inactive
Molecule = FYFNWNTPI; result = inactive
Molecule = MVLSGTLAY; result = inactive
Molecule = RRAALSGHL; result = inactive
Molecule = AVDADDSHF; result = inactive
Molecule = FPIQDFPII; result = inactive
Molecule = MQFPGSVGF; result = inactive
Molecule = IYPEWYFLW; result = inactive

Set 2
Target: CCNF, cyclin fold, Cln2 fusion (human)
Method: yeast growth competition, sequencing
Medium: yeast
Setting: strong parent motif
Reference: not given
Reading: higher = stronger binding
Quantity: normalised enrichment score
Starting sequence: viral docking peptide; PTARRRLLHDLDT
Change = R5A R6A L7A L8A; result = -0.355
Change = R6A; result = 3.5
Change = T2A; result = 3.17
Change = R4A; result = 1.04
Change = T13A; result = 3.45
Change = R5K; result = 1.03
Change = P1A; result = 2.6
Change = D10A; result = 2.02

Set 3
Compound: Cn1cncc1[C@](O)(COc1ccc(C#N)cc1-c1ccc(OC(F)(F)F)cc1)c1ccc(C#N)cc1
Method: competition with immobilised ligand
Concentration: 1 µM
Quantity: remaining binding
target = Ribosomal protein S6 kinase alpha-4, N-terminal kinase domain (RPS6KA4, Homo sapiens, UniProt O75676); test = cell-free assay; result = 89%
target = Cyclin-dependent kinase 11A (CDK11A, Homo sapiens, UniProt Q9UQ88); test = binding; result = 100%
target = MAP kinase-activated protein kinase 2 (MAPKAPK2, Homo sapiens, UniProt P49137); test = cell-free assay; result = 63%
target = Interleukin-1 receptor-associated kinase 4 (IRAK4, Homo sapiens, UniProt Q9NWZ3); test = cell-free assay; result = 75%
target = Epidermal growth factor receptor (EGFR, Homo sapiens, UniProt P00533, del747-750/T751S); test = cell-free assay; result = 80%
target = Cyclin-dependent kinase 2 homolog (CRK2, Plasmodium falciparum, UniProt P61075); test = cell-free assay; result = 77%
target = Cyclin-dependent kinase 14 (CDK14, Homo sapiens, UniProt O94921); test = cell-free assay; result = 86%
target = Phosphatidylinositol 5-phosphate 4-kinase type-2 beta (PIP4K2B, Homo sapiens, UniProt P78356); test = cell-free assay; result = 100%
target = Testis-specific serine/threonine-protein kinase 3 (TSSK3, Homo sapiens, UniProt Q96PN8); test = cell-free assay; result = 98%
target = Fibroblast growth factor receptor 3 (FGFR3, Homo sapiens, UniProt P22607, G697C); test = cell-free assay; result = 60%
target = Serine/threonine-protein kinase mTOR (MTOR, Homo sapiens, UniProt P42345); test = cell-free assay; result = 57%
target = Peripheral plasma membrane protein CASK (CASK, Homo sapiens, UniProt O14936); test = cell-free assay; result = 83%
target = Phosphatidylinositol 4,5-bisphosphate 3-kinase catalytic subunit alpha isoform (PIK3CA, Homo sapiens, UniProt P42336); test = cell-free assay; result = 100%
target = Proto-oncogene tyrosine-protein kinase receptor Ret (RET, Homo sapiens, UniProt P07949, V804L); test = cell-free assay; result = 82%
target = Interleukin-1 receptor-associated kinase 3 (IRAK3, Homo sapiens, UniProt Q9Y616); test = cell-free assay; result = 71%
target = Casein kinase I isoform epsilon (CSNK1E, Homo sapiens, UniProt P49674); test = cell-free assay; result = 77%
target = Receptor-type tyrosine-protein kinase FLT3 (FLT3, Homo sapiens, UniProt P36888, D835Y); test = cell-free assay; result = 95%
target = Epidermal growth factor receptor (EGFR, Homo sapiens, UniProt P00533, A750P/del747-749); test = cell-free assay; result = 93%
target = Serine/threonine-protein kinase 32A (STK32A, Homo sapiens, UniProt Q8WU08); test = cell-free assay; result = 100%
target = Cyclin-dependent kinase 2 (CDK2, Homo sapiens, UniProt P24941); test = cell-free assay; result = 95%
target = Receptor-type tyrosine-protein kinase FLT3 (FLT3, Homo sapiens, UniProt P36888, K663Q); test = cell-free assay; result = 90%
target = Proto-oncogene tyrosine-protein kinase receptor Ret (RET, Homo sapiens, UniProt P07949); test = cell-free assay; result = 94%
target = Serine/threonine-protein kinase WNK2 (WNK2, Homo sapiens, UniProt Q9Y3S1); test = cell-free assay; result = 67%

Single results of other studies
SMILES = COC(=O)N1CCN(C(=O)Cc2ccc(Cl)c(Cl)c2)C(CN2CCCC2)C1.O=C(O)/C=C/C(=O)O (stereo not shown); tested on = Sarcocystis neurona; test = parasite growth; setting = concentration not given, secondary screen; quantity = inhibition; result = -23.6%
SMILES = CC(C)(C)c1cc(C=C(C#N)C#N)cc(Br)c1O; tested on = Cyclin-dependent kinase 9, with cyclin K (CDK9, Homo sapiens, UniProt P50750); test = enzyme activity, inhibitor; setting = 0.5 µM; quantity = remaining activity; result = 109%
SMILES = CN1CCc2cc(Cl)c(O)cc2[C@H]2c3ccccc3CC[C@@H]21; tested on = mouse MPNST tumor cells; test = high-content immunofluorescence imaging, measured: nuclear SOX9; setting = 10 µM, 12 h, mean of 2 replicates; how to read = reference: DMSO control, higher = more nuclear SOX9; quantity = nuclear SOX9 intensity; result = 152 % of DMSO
SMILES = O=C1NC(=O)c2c1c1c3ccccc3n3c1c1c2c2ccccc2n1[C@H]1CC[C@@H]3O1; tested on = Ephrin type-B receptor 2 (EPHB2, Homo sapiens, UniProt P29323); test = enzyme activity, inhibitor; setting = 0.5 µM; how to read = reference: control; quantity = remaining activity; result = 98.4%
SMILES = CCCCCCCCCOc1ccc2[nH]cc(CCN)c2c1; tested on = Sarcocystis neurona; test = parasite growth; setting = concentration not given, secondary screen; quantity = inhibition; result = -12.7%
SMILES = OCC[N+]12CN3CN(CN(C3)C1)C2; tested on = mouse MPNST tumor cells; test = high-content immunofluorescence imaging, measured: nuclear SOX9; setting = 10 µM, 12 h, mean of 2 replicates; how to read = reference: DMSO control, higher = more nuclear SOX9; quantity = nuclear SOX9 intensity; result = 103 % of DMSO
SMILES = CC[C@@H](C)c1nc2cc(Nc3ccnc4ccc(S(=O)(=O)C(C)C)cc34)ccc2s1.Cl; tested on = L929 RIPK3-/- reexpressing RIPK3 K51A/R69H; test = CCK-8; setting = 6.25 µM, with: zVAD; quantity = survival; result = 99.8% and 93.8% and 93.7% and 92.3% and 100%

Excerpt of the above (set 1):
Molecule = TVMDIISRK; result = inactive
Molecule = FYFNWNTPI; result = inactive
Molecule = MVLSGTLAY; result = inactive
Molecule = RRAALSGHL; result = inactive
Molecule = AVDADDSHF; result = inactive
Molecule = FPIQDFPII; result = inactive
